Published values of several laboratories.
Compare with care: the assays were run in different laboratories. ± marks the error that the study gave.

| SMILES | method | matrix | time | pH | temperature | setting | solubility |
| --- | --- | --- | --- | --- | --- | --- | --- |
| Cc1cccc(C2(C(=O)N3CCC4(CC3)CC(CNS(=O)(=O)N(C)C)CCO4)CCCC2)c1 (stereo not drawn) | – | – | – | pH 7.4 | – | – | 140 µM |
| NC(=O)c1cc(-c2ccsc2)ccc1OCCc1cccc(F)c1 | – | PBS | 30 (unit not given) | pH 7.4 | – | – | < 12 µM |
| CC[C@@H]1NC(=O)[C@H]([C@@H](C)CC)NC(=O)[C@H](CC(C)C)NC(=O)[C@@H]2CCCN2C(=O)[C@@H](CC(C)C)NC(=O)[C@H]2CCCN2C(=O)[C@@H](Cc2ccc(O)cc2)NC(=O)CSC[C@@H](C(=O)O)NC(=O)[C@H]([C@@H](C)O)NC(=O)[C@H]([C@@H](C)CC)NC(=O)[C@H](C)NC1=O | – | HBSS | – | pH 7.4 | – | – | 776 µM |
| CC(C)(N)CNC(=O)C[C@@H]1CCC[C@]2(C1)OOC1(O2)C2CC3CC(C2)CC1C3 (stereo partly drawn) | – | – | – | pH 7.4 | – | – | 429 µM |
| CCOC(=O)N1C[C@@H](C2CCCC2)N[C@@H](c2cccnc2)C1 | shake-flask, LC-HRMS | aqueous buffer | 16 h | pH 6.8 | – | – | > 750 µM |
| CNC(=O)[C@@H](NC(=O)c1cc(OCC2(C)COC2)c(C2CC2)cn1)C(C)(C)C | LYSA | – | – | – | – | – | 174 ± 47 µg/mL |
| O=C(NCCCNc1nc(Nc2cccc(NC(=O)N3CCCC3)c2)ncc1I)c1cccs1 | – | Capmul MCM C8 | 24 h | – | 37 °C | – | 570 ± 280 µg/mL |
| CN1C(=O)Cc2ccc(F)c(CNCCCC3CN(c4ccc5c(n4)NC(=O)CO5)C(=O)O3)c21 (stereo not drawn) | – | aqueous buffer | – | – | – | – | 133 µM |
| CC[C@H](C)[C@H](NC(=O)[C@H](CC(=O)O)NC(=O)[C@H](CCCCN)NC(=O)[C@H](CC(C)C)NC(=O)[C@H](CC(N)=O)NC(=O)[C@@H](NC(=O)[C@H](Cc1ccc(O)cc1)NC(=O)[C@H](CO)NC(=O)[C@H](CCC(N)=O)NC(=O)[C@H](CCC(=O)O)NC(=O)[C@H](CC(C)C)NC(=O)[C@H](CCCCN)NC(=O)[C@H](CCCCN)NC(=O)[C@@H](NC(=O)[C@H](C)NC(=O)[C@H](CCC(=O)O)NC(=O)[C@H](CCC(=O)O)NC(=O)[C@H](CC(C)C)NC(=O)[C@H](CCCCN)NC(=O)[C@H](CCCCN)NC(=O)[C@H](CCSC)NC(=O)[C@H](CCC(=O)O)NC(=O)[C@H](CC(=O)O)NC(=O)[C@H](CCC(N)=O)NC(=O)[C@H](CC(C)C)NC(=O)[C@H](CC(=O)O)NC(=O)[C@H](CC(C)C)NC(=O)[C@H](Cc1ccccc1)NC(=O)[C@@H](NC(=O)[C@@H](NC(=O)[C@H](CC(N)=O)NC(=O)[C@@H](NC(=O)[C@H](Cc1ccc(O)cc1)NC(=O)[C@H](CC(=O)O)NC(=O)[C@H](CC(C)C)NC(=O)[C@@H](N)CO)[C@@H](C)CC)C(C)C)[C@@H](C)O)[C@@H](C)CC)[C@@H](C)CC)C(=O)O | – | water | – | – | – | – | 9510 ± 272 µM |
| CCOC(=O)N1C[C@@H](c2ccc(C)nc2)N[C@@H](C2CCC2)C1 | shake-flask, LC-HRMS | aqueous buffer | 16 h | pH 6.8 | – | – | > 750 µM |
| COc1cc(Nc2ncc(F)c(Nc3ccc4c(n3)NC(=O)C(C)(C)O4)n2)cc(OC)c1OC | – | kinase assay buffer | 3 h | – | – | 1% DMSO | 170 µM |
| COc1ccc(-c2oc3cc(OC)cc(OC)c3c(=O)c2OC)cc1 | HPLC | ethanol:butylene glycol 25:75 | – | – | – | – | 6033 ± 13 ppm |
| CN(C)S(=O)(=O)NCC1CCOC2(CCN(C(=O)C3(c4ccccn4)CCCC3)CC2)C1 (stereo not drawn) | – | – | – | pH 7.4 | – | – | 170 µM |
| COC1=CC(c2ccc[nH]2)=N/C1=C\c1cc(-c2ccc(OC)cc2)c(C)[nH]1.Cl | – | potassium phosphate buffer | 1.5 h | pH 7.4 | room temperature | 100 mM buffer | 25.1 µM |
| CC[C@H](C)[C@H](NC(=O)[C@H](C)NC(=O)[C@H](CCC(=O)O)NC(=O)[C@H](CCC(=O)O)NC(=O)[C@H](CC(C)C)NC(=O)[C@H](CCCCN)NC(=O)[C@H](CCCCN)NC(=O)[C@H](CCSC)NC(=O)[C@H](CCC(=O)O)NC(=O)[C@H](Cc1ccc(O)cc1)NC(=O)[C@H](CCC(=O)O)NC(=O)[C@H](CC(C)C)NC(=O)[C@H](CC(=O)O)NC(=O)[C@H](CC(C)C)NC(=O)[C@H](Cc1ccccc1)NC(=O)[C@@H](NC(=O)[C@@H](NC(=O)[C@H](CC(N)=O)NC(=O)[C@@H](NC(=O)[C@H](CCC(N)=O)NC(=O)[C@H](CC(=O)O)NC(=O)[C@H](CC(C)C)NC(=O)[C@@H](N)CO)[C@@H](C)CC)C(C)C)[C@@H](C)O)C(=O)N[C@@H](CCCCN)C(=O)N[C@@H](CCCCN)C(=O)N[C@@H](CC(C)C)C(=O)N[C@@H](CCC(=O)O)C(=O)N[C@@H](CCC(=O)O)C(=O)N[C@@H](CO)C(=O)N[C@@H](Cc1ccc(O)cc1)C(=O)N[C@H](C(=O)N[C@@H](CC(=O)O)C(=O)N[C@@H](CC(C)C)C(=O)N[C@@H](CCCCN)C(=O)N[C@@H](CCC(=O)O)C(=O)N[C@@H](CC(C)C)C(=O)O)[C@@H](C)CC | – | PBS | – | pH 7.2 | – | – | 1540 ± 115 µM |
| COC1=CC(c2ccc[nH]2)=N/C1=C\c1[nH]c(C)cc1Cc1ccccc1.Cl | – | potassium phosphate buffer | 1.5 h | pH 7.4 | room temperature | 100 mM buffer | 196 µM |
| O=c1ccn([C@@H]2O[C@H](CO)[C@@H](O)[C@H]2O)c(=S)[nH]1 | – | aqueous buffer | 4 (unit not given) | pH 6.8 | 37 °C | – | > 100 µM |
| CCc1cc(C)cc(CC)c1-c1c(OC(=O)C(C)(C)C)n2n(c1=O)CCOCC2 | – | PBS | 2 h | pH 7.4 | 25 °C | 2% DMSO | 358 µM |

| SMILES | method | matrix | time | pH | temperature | setting | solubility |
| --- | --- | --- | --- | --- | --- | --- | --- |
| COC1=C(OC)/C(=C/c2cc(Cc3ccc(OC(F)(F)F)cc3)c(C)[nH]2)N=C1c1ccc[nH]1.Cl | – | potassium phosphate buffer | 1.5 h | pH 7.4 | room temperature | 100 mM buffer | 6.6 µM |
| CC(C)(C)C(=O)NNCc1ccccc1 | – | PBS | – | pH 7.4 | 25 °C | 2% DMSO | 452 µM |
| C#Cc1ccc2c(c1)C(c1ccccn1)=NCc1c(-c3cnco3)ncn1-2 | – | chloroform | 24 h | – | 25 °C | thermodynamic equilibrium | 4360 µg/mL |
| NC(=O)c1cccc2c1O/C(=C\c1ccc(C(=O)N[C@H]3CN4CCC3CC4)s1)C2=O | saturation solubility | aqueous buffer | 24 h | – | 25 °C | – | > 1000 µg/mL |
| CC(C)N(Cc1ccccc1)C(=O)C(C)(C)C | – | PBS | 2 h | pH 7.4 | 25 °C | 2% DMSO | 325 µM |
| CS(=O)(=O)NCC1CCOC2(CCN(C(=O)C3(c4cccc(Cl)c4)CCCC3)CC2)C1 (stereo not drawn) | – | – | – | pH 7.4 | – | – | > 220 µM |
| CCNC(=O)c1cc(C)ccc1OCCc1cc(F)cc(F)c1 | – | PBS | 30 (unit not given) | pH 7.4 | – | – | 50 µM |
| CCOC(=O)N1C[C@@H](c2ccc(C)nc2)N[C@@H](C(C)C)C1 | shake-flask, LC-HRMS | aqueous buffer | 16 h | pH 6.8 | – | – | > 750 µM |
| COC1=CC(c2ccc[nH]2)=N/C1=C\c1cc(Cc2ccc(C#N)cc2)c(C)[nH]1.Cl | – | potassium phosphate buffer | 1.5 h | pH 7.4 | room temperature | 100 mM buffer | 50.4 µM |
| CN(C)S(=O)(=O)NCC1CCOC2(CCN(C(=O)C3(c4cccc(C(F)(F)F)c4)CCCC3)CC2)C1 (stereo not drawn) | – | – | – | pH 7.4 | – | – | 90 µM |
| COC1=CC(c2ccc[nH]2)=N/C1=C\c1cc(-c2ccc(Cl)cc2)c(C)[nH]1.Cl | – | potassium phosphate buffer | 1.5 h | pH 7.4 | room temperature | 100 mM buffer | < 3.13 µM |
| CC[C@@]1(O)C(=O)OCc2c1cc1n(c2=O)Cc2cc3cc4c(cc3nc2-1)OCO4 | – | – | – | – | – | – | < 1 µg/mL |
| CC1=C(C)/C(=C/c2cc(Cc3ccc(OC(F)(F)F)cc3)c(C)[nH]2)N=C1c1ccc[nH]1.Cl | – | potassium phosphate buffer | 1.5 h | pH 7.4 | room temperature | 100 mM buffer | 38.6 µM |
| CC[C@H](C)[C@H](NC(=O)[C@H](CCC(=O)O)NC(=O)[C@H](CCCCN)NC(=O)[C@H](CC(C)C)NC(=O)[C@H](CC(N)=O)NC(=O)[C@@H](NC(=O)[C@H](Cc1ccc(O)cc1)NC(=O)[C@H](CO)NC(=O)[C@H](CCC(=O)O)NC(=O)[C@H](CCC(=O)O)NC(=O)[C@H](CC(C)C)NC(=O)[C@H](CCCCN)NC(=O)[C@H](CCCCN)NC(=O)[C@@H](NC(=O)[C@H](C)NC(=O)[C@H](CCC(=O)O)NC(=O)[C@H](CCC(=O)O)NC(=O)[C@H](CC(C)C)NC(=O)[C@H](CCCCN)NC(=O)[C@H](CCCCN)NC(=O)[C@H](CCSC)NC(=O)[C@H](CCC(=O)O)NC(=O)[C@H](CC(=O)O)NC(=O)[C@H](CCC(=O)O)NC(=O)[C@H](CC(C)C)NC(=O)[C@H](CC(=O)O)NC(=O)[C@H](CC(C)C)NC(=O)[C@H](Cc1ccccc1)NC(=O)[C@@H](NC(=O)[C@@H](NC(=O)[C@H](CC(N)=O)NC(=O)[C@@H](NC(=O)[C@H](Cc1ccc(O)cc1)NC(=O)[C@H](CC(=O)O)NC(=O)[C@H](CC(C)C)NC(=O)[C@@H](N)CO)[C@@H](C)CC)C(C)C)[C@@H](C)O)[C@@H](C)CC)[C@@H](C)CC)C(=O)O | – | water | – | – | – | – | 10700 ± 454 µM |
| COc1cc2c(cc1NC(=O)c1ccc(C(C)(C)C)cc1)CCCCN2 | – | – | – | pH 7.4 | – | – | 6 µM |
| CN1C(=O)Cc2ccc(F)c(CCNC[C@H]3CN(c4ccc5c(n4)NC(=O)CO5)C(=O)O3)c21 | – | aqueous buffer | – | – | – | – | 90 µM |
| CCc1ccc(OCCc2cccc(F)c2)c(C(N)=O)c1 | – | PBS | 30 (unit not given) | pH 7.4 | – | – | 50 µM |
| CC[C@H](C)[C@@H]1NC(=O)[C@H](CO)NC(=O)[C@H](CC(C)C)NC(=O)[C@H](CC(C)C)N(C)C(=O)[C@@H](Cc2ccc(O)cc2)NC(=O)[C@@H](Cc2ccc(O)cc2)NC(=O)CSC[C@@H](C(=O)O)NC(=O)CNC(=O)[C@@H](C(C)C)NC(=O)[C@H]2CCCN2C(=O)[C@H](C)NC1=O | – | HBSS | – | pH 7.4 | – | – | 708 µM |

Excerpt of the above:
| SMILES | method | matrix | time | pH | temperature | setting | solubility |
| --- | --- | --- | --- | --- | --- | --- | --- |
| CCc1cc(C)cc(CC)c1-c1c(OC(=O)C(C)(C)C)n2n(c1=O)CCOCC2 | – | PBS | 2 h | pH 7.4 | 25 °C | 2% DMSO | 358 µM |
| COc1cc(Nc2ncc(F)c(Nc3ccc4c(n3)NC(=O)C(C)(C)O4)n2)cc(OC)c1OC | – | kinase assay buffer | 3 h | – | – | 1% DMSO | 170 µM |
| CC[C@H](C)[C@H](NC(=O)[C@H](CCC(=O)O)NC(=O)[C@H](CCCCN)NC(=O)[C@H](CC(C)C)NC(=O)[C@H](CC(N)=O)NC(=O)[C@@H](NC(=O)[C@H](Cc1ccc(O)cc1)NC(=O)[C@H](CO)NC(=O)[C@H](CCC(=O)O)NC(=O)[C@H](CCC(=O)O)NC(=O)[C@H](CC(C)C)NC(=O)[C@H](CCCCN)NC(=O)[C@H](CCCCN)NC(=O)[C@@H](NC(=O)[C@H](C)NC(=O)[C@H](CCC(=O)O)NC(=O)[C@H](CCC(=O)O)NC(=O)[C@H](CC(C)C)NC(=O)[C@H](CCCCN)NC(=O)[C@H](CCCCN)NC(=O)[C@H](CCSC)NC(=O)[C@H](CCC(=O)O)NC(=O)[C@H](CC(=O)O)NC(=O)[C@H](CCC(=O)O)NC(=O)[C@H](CC(C)C)NC(=O)[C@H](CC(=O)O)NC(=O)[C@H](CC(C)C)NC(=O)[C@H](Cc1ccccc1)NC(=O)[C@@H](NC(=O)[C@@H](NC(=O)[C@H](CC(N)=O)NC(=O)[C@@H](NC(=O)[C@H](Cc1ccc(O)cc1)NC(=O)[C@H](CC(=O)O)NC(=O)[C@H](CC(C)C)NC(=O)[C@@H](N)CO)[C@@H](C)CC)C(C)C)[C@@H](C)O)[C@@H](C)CC)[C@@H](C)CC)C(=O)O | – | water | – | – | – | – | 10700 ± 454 µM |
